Measured values gathered from unrelated publications.
Each line is one published result; not all experiments were run side by side.
CALCR: Calcitonin receptor (CALCR, Homo sapiens, UniProt P30988)
UniProt P30988, sequence (whole entry, looked up): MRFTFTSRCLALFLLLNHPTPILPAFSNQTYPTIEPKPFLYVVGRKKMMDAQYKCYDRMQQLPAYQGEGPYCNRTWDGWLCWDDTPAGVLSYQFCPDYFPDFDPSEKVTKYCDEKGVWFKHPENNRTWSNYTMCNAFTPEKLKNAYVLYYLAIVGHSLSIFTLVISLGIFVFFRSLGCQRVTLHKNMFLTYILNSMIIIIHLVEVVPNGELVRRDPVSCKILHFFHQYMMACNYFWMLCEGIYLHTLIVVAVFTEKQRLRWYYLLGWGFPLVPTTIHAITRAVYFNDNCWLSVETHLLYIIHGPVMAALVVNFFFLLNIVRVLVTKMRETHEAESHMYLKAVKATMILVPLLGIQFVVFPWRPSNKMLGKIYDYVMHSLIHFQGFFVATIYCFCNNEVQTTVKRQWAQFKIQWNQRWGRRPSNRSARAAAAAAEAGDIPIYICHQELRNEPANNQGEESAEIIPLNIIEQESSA
VHL/BRD9: VHL/BRD9 (Homo sapiens, UniProt P40337+Q9H8M2)
UniProt P40337, sequence (whole entry, looked up): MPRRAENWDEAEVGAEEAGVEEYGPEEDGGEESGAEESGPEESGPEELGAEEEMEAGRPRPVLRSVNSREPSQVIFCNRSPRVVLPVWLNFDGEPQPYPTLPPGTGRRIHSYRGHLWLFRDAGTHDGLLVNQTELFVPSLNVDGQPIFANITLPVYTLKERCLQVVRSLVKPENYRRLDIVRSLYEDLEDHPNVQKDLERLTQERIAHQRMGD
UniProt Q9H8M2, sequence (whole entry, looked up): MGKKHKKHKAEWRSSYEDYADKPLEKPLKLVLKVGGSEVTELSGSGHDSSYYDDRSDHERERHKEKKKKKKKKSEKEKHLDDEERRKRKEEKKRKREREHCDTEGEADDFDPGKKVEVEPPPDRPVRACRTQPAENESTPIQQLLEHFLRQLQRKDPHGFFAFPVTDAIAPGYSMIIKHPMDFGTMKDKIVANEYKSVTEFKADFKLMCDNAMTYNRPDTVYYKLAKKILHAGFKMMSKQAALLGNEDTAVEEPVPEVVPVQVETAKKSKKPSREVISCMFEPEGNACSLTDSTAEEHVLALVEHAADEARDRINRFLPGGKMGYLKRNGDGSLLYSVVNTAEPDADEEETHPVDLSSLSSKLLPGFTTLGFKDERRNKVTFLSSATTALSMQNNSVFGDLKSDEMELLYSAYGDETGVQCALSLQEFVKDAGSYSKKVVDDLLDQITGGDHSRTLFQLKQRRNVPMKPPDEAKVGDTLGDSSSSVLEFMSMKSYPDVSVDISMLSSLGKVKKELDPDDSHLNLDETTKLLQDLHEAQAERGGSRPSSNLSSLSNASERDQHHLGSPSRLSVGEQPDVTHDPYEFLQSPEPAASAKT
UniProt P61981, sequence (whole entry, looked up): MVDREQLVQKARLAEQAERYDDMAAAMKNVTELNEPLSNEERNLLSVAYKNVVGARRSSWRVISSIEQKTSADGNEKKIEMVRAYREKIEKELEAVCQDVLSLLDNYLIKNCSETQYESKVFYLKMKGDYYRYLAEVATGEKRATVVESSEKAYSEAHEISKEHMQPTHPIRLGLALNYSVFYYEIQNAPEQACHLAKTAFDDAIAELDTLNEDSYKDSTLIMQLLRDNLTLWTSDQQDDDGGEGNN
UniProt P07333, sequence (whole entry, looked up): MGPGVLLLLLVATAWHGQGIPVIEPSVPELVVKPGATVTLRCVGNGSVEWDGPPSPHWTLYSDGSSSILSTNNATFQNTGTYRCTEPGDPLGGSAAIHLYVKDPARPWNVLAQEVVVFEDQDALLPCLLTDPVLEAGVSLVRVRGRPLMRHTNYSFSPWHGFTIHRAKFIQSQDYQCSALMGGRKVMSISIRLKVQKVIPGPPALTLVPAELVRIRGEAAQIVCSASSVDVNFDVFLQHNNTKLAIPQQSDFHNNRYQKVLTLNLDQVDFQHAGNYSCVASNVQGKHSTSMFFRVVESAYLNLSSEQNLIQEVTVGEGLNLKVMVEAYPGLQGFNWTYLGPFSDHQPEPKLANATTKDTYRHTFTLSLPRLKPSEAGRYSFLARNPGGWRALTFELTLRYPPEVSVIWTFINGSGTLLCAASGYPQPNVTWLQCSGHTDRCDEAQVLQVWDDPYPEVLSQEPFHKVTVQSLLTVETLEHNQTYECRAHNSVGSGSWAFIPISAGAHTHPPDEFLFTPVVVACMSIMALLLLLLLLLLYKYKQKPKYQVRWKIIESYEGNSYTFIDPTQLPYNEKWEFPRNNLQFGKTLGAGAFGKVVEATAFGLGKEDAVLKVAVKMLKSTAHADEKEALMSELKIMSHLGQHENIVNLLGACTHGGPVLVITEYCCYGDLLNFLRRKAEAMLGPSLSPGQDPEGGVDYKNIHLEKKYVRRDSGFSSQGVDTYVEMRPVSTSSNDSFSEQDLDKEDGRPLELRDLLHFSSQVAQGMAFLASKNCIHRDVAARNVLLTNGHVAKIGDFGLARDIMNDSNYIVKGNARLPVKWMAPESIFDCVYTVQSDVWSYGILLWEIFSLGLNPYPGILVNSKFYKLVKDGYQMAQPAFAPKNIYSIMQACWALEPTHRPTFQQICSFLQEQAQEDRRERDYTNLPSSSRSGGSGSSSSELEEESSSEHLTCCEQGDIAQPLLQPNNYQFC
UniProt Q04206, sequence (whole entry, looked up): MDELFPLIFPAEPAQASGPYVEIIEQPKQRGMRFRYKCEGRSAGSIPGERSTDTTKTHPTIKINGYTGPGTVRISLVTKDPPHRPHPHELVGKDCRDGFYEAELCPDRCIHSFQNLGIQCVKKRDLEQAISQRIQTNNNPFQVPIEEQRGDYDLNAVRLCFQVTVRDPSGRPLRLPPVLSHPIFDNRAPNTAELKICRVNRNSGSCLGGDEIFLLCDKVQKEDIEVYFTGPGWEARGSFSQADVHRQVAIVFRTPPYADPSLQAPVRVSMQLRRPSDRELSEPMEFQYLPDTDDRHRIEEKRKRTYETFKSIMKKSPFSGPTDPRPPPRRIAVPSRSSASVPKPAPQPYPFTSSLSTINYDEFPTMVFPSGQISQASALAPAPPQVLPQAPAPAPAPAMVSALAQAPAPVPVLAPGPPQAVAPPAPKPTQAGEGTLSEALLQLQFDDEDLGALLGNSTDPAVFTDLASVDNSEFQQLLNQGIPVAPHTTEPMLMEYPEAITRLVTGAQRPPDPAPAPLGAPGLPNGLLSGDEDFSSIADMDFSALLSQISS
UniProt O75762, sequence (whole entry, looked up): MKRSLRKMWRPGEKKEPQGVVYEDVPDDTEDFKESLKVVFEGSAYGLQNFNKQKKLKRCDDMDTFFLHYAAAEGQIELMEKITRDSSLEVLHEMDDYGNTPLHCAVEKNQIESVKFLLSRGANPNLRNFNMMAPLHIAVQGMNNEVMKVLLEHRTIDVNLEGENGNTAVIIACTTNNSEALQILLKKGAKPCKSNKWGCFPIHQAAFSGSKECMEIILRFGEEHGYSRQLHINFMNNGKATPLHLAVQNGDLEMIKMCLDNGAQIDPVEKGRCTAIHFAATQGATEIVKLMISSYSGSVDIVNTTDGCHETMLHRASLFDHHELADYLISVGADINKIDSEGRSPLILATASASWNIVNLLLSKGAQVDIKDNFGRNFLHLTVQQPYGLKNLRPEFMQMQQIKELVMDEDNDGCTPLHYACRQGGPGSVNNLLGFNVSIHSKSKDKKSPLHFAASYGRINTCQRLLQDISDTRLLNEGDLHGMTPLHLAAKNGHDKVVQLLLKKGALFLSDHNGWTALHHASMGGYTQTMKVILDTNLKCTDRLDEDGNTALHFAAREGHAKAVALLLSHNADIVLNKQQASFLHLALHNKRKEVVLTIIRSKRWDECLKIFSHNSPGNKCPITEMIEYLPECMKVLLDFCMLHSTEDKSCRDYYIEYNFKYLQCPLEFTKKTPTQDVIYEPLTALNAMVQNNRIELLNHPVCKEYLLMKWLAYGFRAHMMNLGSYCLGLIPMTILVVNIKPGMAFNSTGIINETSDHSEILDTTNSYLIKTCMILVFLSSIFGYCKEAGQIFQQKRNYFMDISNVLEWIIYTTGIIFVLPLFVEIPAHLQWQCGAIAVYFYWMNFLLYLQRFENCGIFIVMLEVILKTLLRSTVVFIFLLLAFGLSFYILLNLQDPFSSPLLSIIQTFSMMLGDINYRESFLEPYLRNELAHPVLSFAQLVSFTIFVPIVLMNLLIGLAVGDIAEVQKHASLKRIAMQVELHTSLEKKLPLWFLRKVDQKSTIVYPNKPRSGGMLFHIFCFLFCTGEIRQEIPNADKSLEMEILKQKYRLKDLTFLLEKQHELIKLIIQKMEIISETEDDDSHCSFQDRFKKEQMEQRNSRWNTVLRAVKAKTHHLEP
UniProt P11229, sequence (whole entry, looked up): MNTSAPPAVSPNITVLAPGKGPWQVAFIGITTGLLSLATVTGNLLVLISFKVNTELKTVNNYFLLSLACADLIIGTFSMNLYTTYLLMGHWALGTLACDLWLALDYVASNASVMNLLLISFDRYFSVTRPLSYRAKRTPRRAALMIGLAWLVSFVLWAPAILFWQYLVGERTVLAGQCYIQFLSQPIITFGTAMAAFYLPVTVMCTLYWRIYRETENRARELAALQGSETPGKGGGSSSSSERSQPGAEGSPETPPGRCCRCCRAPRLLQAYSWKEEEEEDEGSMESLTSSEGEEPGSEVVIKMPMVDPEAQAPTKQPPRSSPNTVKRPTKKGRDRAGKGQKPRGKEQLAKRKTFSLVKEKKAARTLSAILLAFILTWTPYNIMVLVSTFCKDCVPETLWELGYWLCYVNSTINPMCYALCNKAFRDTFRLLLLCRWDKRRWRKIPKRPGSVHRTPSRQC

SMILES | target or system | test | test system | setting | scale | measurement | value
CC[C@H](C)[C@@H](C(=O)N[C@@H](CC(C)C)C(=O)N[C@@H](CO)C(=O)N[C@@H](CO)C(=O)N[C@H](C(=O)N[C@@H](CCC(=O)O)C(=O)N[C@H](C(=O)NCC(=O)N[C@@H](CO)C(=O)N[C@@H](CC(N)=O)C(=O)N[C@H](C(=O)N1C[C@H](O)C[C@H]1C(N)=O)[C@@H](C)O)C(C)C)[C@@H](C)O)N(C)C(=O)[C@H](C)NC(=O)CN(C)C(=O)[C@H](Cc1ccccc1)NC(=O)[C@H](CO)NC(=O)[C@H](CO)NC(=O)[C@H](CCCNC(=N)N)NC(=O)[C@H](CCC(N)=O)NC(=O)[C@H](CC(C)C)NC(=O)[C@H](Cc1ccccc1)NC(=O)[C@H](Cc1c[nH]cn1)NC(=O)[C@H](C)NC(=O)[C@H](CC(C)C)NC(=O)[C@H](CCCNC(=N)N)NC(=O)[C@H](CCC(=O)O)NC(=O)[C@@H](NC(=O)[C@H](C)NC(=O)[C@@H]1CC(=O)NCC[C@H](NC(=O)[C@H](CCCNC(=N)N)NC(=O)CC[C@H](NC(=O)CCCCCCCCCCCCCCCCCCC(=O)O)C(=O)O)C(=O)NCC(=O)N[C@@H]([C@@H](C)O)C(=O)N[C@@H](C)C(=O)N[C@@H]([C@@H](C)O)C(=O)N1)[C@@H](C)O | CALCR | cAMP, agonist | – | – | – | EC50 | 0.0501 µM
O=C(Cc1ccc(OCc2ccccc2)cc1)NC1(C(=O)O)CCN(C(=O)c2ccc(-c3cccc(Cl)c3)cc2)CC1 | CHRM1 (Homo sapiens, UniProt P11229) | inositol phosphate, agonist | – | – | – | EC50 | > 10 µM
CC[C@H](C)[C@@H](C(=O)N[C@@H](CC(C)C)C(=O)N[C@@H](CO)C(=O)N[C@@H](CO)C(=O)N[C@H](C(=O)N[C@@H](CCC(=O)O)C(=O)N[C@H](C(=O)NCC(=O)N[C@@H](CO)C(=O)N[C@@H](CC(N)=O)C(=O)N[C@H](C(=O)N1CCC[C@H]1C(N)=O)[C@@H](C)O)C(C)C)[C@@H](C)O)N(C)C(=O)[C@H](C)NC(=O)CN(C)C(=O)[C@H](Cc1ccccc1)NC(=O)[C@H](CO)NC(=O)[C@H](CO)NC(=O)[C@H](CCCNC(=N)N)NC(=O)[C@H](Cc1c[nH]cn1)NC(=O)[C@H](CC(C)C)NC(=O)[C@H](Cc1ccccc1)NC(=O)[C@H](Cc1c[nH]cn1)NC(=O)[C@H](C)NC(=O)[C@H](CC(C)C)NC(=O)[C@H](CCCNC(=N)N)NC(=O)[C@H](CCC(=O)O)NC(=O)[C@@H](NC(=O)[C@H](C)NC(=O)[C@@H]1CSSC[C@H](NC(=O)[C@H](CCCNC(=N)N)NC(=O)CC[C@H](NC(=O)CCCCCCCCCCCCCCCCCCC(=O)O)C(=O)O)C(=O)NCC(=O)N[C@@H]([C@@H](C)O)C(=O)N[C@@H](C)C(=O)N[C@@H]([C@@H](C)O)C(=O)N1)[C@@H](C)O | CALCR | cAMP, agonist | – | – | – | EC50 | 0.000174 µM
CC(=O)NCCN(c1nc(N2CC(Oc3ccccc3)C2)nc(N2CC3C(CCOc4cc(-c5scnc5C)ccc4CNC(=O)[C@@H]4C[C@@H](O)CN4C(=O)[C@@H](NC(=O)C4(F)CC4)C(C)(C)C)C3C2)n1)C(C)C (stereo partly shown) | VHL/BRD9 | ternary complex formation, NanoBiT | HEK293T | 2 h, added: MLN4924 2 µM | – | EC50 | 0.033 µM
CC[C@H]1CN(C(c2cccc(C(F)(F)F)c2)c2nc(C(F)(F)F)nn2C)[C@H](CC)CN1c1nc(=O)n(C)c2ccc(C#N)nc12 (stereo partly shown) | DGKZ (Homo sapiens, UniProt Q13574) | DGKζ-YFP translocation, high-content imaging | Jurkat | – | – | EC50 | 0.004 µM
O=Cc1ccc([N+](=O)[O-])c(OS(=O)(=O)c2ccc(F)cc2)c1 | YWHAG/RELA, phospho-Ser45 p65 peptide (Homo sapiens, UniProt P61981+Q04206) | ternary complex formation, stabilizer, fluorescence anisotropy | – | – | – | EC50 | > 1000 µM
CN1CCN(S(=O)(=O)c2ccc(-c3ccc4ncnc(Nc5ccccc5)c4c3)cc2)CC1 | Leishmania major | intracellular amastigote growth, luciferase | RAW264.7 macrophages | – | – | EC50 | > 15 µM
Cc1nn(-c2cccc(N)c2)c(=O)c2cnc(Nc3ccc(N4CCNCC4)cc3)nc12 | CSF1R (Homo sapiens, UniProt P07333) | enzyme activity, inhibitor | – | – | – | IC50 | 0.85 µM
CC[C@H](C)[C@@H](C(=O)N[C@@H](CC(C)C)C(=O)N[C@@H](CO)C(=O)N[C@@H](CO)C(=O)N[C@H](C(=O)N[C@@H](CC(N)=O)C(=O)N[C@H](C(=O)NCC(=O)N[C@@H](CO)C(=O)N[C@@H](CC(N)=O)C(=O)N[C@H](C(=O)N1CC[C@H]1C(N)=O)[C@@H](C)O)C(C)C)[C@@H](C)O)N(C)C(=O)[C@H](C)NC(=O)CN(C)C(=O)[C@H](Cc1ccccc1)NC(=O)[C@H](CC(N)=O)NC(=O)[C@H](CC(N)=O)NC(=O)[C@H](CO)NC(=O)[C@H](CO)NC(=O)[C@H](CCCNC(=N)N)NC(=O)[C@H](Cc1c[nH]cn1)NC(=O)[C@H](CC(C)C)NC(=O)[C@H](Cc1ccccc1)NC(=O)[C@H](CCC(=O)O)NC(=O)[C@H](C)NC(=O)[C@H](CC(C)C)NC(=O)[C@H](CCCNC(=N)N)NC(=O)[C@H](CCC(N)=O)NC(=O)[C@@H](NC(=O)[C@H](C)NC(=O)[C@@H]1CSSC[C@H](NC(=O)[C@H](CCCNC(=N)N)NC(=O)CC[C@H](NC(=O)CCCCCCCCCCCCCCCCCCC(=O)O)C(=O)O)C(=O)N[C@@H](CC(N)=O)C(=O)N[C@@H]([C@@H](C)O)C(=O)N[C@@H](C)C(=O)N[C@@H]([C@@H](C)O)C(=O)N1)[C@@H](C)O | CALCR | cAMP, agonist | – | – | – | EC50 | 0.000288 µM
C#CCN1CCN(c2nc(N3CCC(CCOc4cc(-c5scnc5C)ccc4CNC(=O)[C@@H]4C[C@@H](O)CN4C(=O)[C@@H](NC(=O)C4(F)CC4)C(C)(C)C)CC3)nc(N3CCN(C(=O)C4CC4)C3)n2)CC1=O | VHL/BRD9 | ternary complex formation, NanoBiT | HEK293T | 2 h, added: MLN4924 2 µM | – | EC50 | 0.029 µM
O=C(c1ccc(-c2ccc3ncnc(Nc4ccc(OCc5cccc(F)c5)c(Cl)c4)c3c2)cc1)N1CCCCC1 | Leishmania major | intracellular amastigote growth, luciferase | RAW264.7 macrophages | – | – | EC50 | 2.9 µM
COC1CN([C@H]2CC[C@H]([C@@]3(C)Oc4c(Cl)cc(C(=O)NCc5c(SC)cc(C)[nH]c5=O)c(C)c4O3)CC2)C1 | – | RNA-seq, measured: GIPC2 | human, whole blood | dose not given, 24 h | relative to: pretreatment baseline | log2 fold change | 4.11
O=C(NC[C@@H](Cc1ccc(F)cc1)N1CCC(O)(C(F)(F)F)CC1)C1(c2ccc(Cl)cc2)CCCC1 | TRPA1 (Homo sapiens, UniProt O75762) | calcium signal, agonist | – | – | – | EC50 | 0.0073 µM
